Assay results from different studies.
Each numbered part is a random draw from the data of one study; scales do not carry over between parts. Changes are numbered by the printed parent chain.
Sequence of UniProt P08173 (whole entry, looked up): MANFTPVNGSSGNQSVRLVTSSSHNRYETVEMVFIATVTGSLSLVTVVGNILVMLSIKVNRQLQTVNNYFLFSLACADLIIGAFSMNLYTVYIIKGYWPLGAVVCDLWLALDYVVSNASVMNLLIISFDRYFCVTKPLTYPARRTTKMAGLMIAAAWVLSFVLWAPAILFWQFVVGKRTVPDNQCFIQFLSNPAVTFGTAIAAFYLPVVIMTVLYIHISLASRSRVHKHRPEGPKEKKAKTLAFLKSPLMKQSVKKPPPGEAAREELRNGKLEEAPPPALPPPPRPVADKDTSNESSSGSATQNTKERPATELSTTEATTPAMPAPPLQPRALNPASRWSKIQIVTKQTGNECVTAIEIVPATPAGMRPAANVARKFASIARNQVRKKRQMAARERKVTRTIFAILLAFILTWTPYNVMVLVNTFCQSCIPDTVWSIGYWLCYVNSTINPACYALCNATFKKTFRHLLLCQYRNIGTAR
Sequence of UniProt P62344 (whole entry, looked up): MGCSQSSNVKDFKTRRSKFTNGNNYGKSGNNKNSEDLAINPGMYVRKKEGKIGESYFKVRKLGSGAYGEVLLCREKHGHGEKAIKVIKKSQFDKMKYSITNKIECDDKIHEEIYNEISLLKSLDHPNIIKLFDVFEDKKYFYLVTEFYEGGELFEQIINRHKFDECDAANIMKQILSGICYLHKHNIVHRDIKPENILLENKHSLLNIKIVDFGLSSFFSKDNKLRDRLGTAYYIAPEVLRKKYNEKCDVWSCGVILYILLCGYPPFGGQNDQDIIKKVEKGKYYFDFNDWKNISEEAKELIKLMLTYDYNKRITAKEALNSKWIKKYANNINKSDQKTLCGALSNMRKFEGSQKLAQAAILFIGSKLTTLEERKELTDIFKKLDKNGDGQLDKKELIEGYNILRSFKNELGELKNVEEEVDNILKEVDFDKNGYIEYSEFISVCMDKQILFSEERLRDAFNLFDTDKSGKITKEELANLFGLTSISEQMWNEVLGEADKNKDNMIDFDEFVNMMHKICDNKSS
Sequence of UniProt Q99640 (whole entry, looked up): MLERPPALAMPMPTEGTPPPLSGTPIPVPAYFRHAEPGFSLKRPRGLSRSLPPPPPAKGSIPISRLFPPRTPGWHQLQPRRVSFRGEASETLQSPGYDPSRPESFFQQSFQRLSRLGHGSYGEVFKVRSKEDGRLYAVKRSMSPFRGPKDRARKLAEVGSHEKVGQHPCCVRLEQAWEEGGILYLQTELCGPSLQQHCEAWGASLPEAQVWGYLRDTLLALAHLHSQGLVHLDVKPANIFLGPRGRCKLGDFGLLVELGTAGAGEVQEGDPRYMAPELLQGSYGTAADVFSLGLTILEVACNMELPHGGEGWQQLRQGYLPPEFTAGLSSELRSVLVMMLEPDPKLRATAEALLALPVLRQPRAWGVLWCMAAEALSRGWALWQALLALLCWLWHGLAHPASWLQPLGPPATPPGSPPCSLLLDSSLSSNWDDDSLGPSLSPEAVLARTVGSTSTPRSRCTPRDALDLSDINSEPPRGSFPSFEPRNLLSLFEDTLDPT

Series 1
Target: CCNA2, cyclin fold, Cln2 fusion (human)
Method: yeast growth competition, sequencing
Matrix: yeast
Setting: strong parent motif
Reference: not given
Reading: higher = stronger binding
Parent: viral docking peptide; KGVKRKLFAEDSS
Variant	normalised enrichment score
G2F	6.17
F8M	1.17
R5G	0.268
E10V	5.79
L7N	0.415
L7C	0.874
K4R	7.18

Other studies, line by line
CBF1 full length, N-terminal tag: Centromere-binding protein 1, full length, N-terminal tag (CBF1, Saccharomyces cerevisiae, UniProt P17106, residues 1-351)
Sequence of UniProt P17106 (whole entry, looked up): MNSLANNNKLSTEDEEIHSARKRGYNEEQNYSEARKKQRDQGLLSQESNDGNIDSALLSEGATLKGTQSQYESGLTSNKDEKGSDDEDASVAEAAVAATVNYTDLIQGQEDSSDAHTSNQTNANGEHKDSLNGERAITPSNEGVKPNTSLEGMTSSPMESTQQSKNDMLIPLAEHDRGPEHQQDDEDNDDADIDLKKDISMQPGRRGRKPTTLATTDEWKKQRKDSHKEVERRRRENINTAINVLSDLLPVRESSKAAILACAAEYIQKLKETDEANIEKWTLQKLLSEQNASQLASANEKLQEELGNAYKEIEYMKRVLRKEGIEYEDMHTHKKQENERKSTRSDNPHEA
Substance	tested on	assay	system	conditions	how to read	quantity	value
CN(C)CC#Cc1ccc(OCCCc2sc(N3CCc4cccc(C(=O)Nc5nc6ccccc6s5)c4C3)nc2C(=O)O)c(F)c1	Calcium-dependent protein kinase 1 (CDPK1, Plasmodium falciparum, UniProt P62344)	cell-free assay, competition with immobilised ligand	–	1 µM	–	remaining binding	100%
TGTACGAAGCTATGCGACATCACTATAGTAGTTAGGGTCTTGATTCGCTTGACGCTGCTG	CBF1 full length, N-terminal tag	protein-binding microarray	double-stranded DNA, one strand shown, in vitro	0.8 µM, whole 60-bp probe, no competitor	higher = stronger binding	fluorescence intensity	512 a.u.
KQLGQVMLL	HLA class I histocompatibility antigen, B alpha chain, allele B*48:01 (Homo sapiens, UniProt P01889)	peptide-MHC binding	peptide	concentration not given	–	binding	active
C[C@@H]1C[C@@H]([C@H](O)CC2CC(=O)NC(=O)C2)C(=O)[C@@H](C)C1	Membrane-associated tyrosine- and threonine-specific cdc2-inhibitory kinase (PKMYT1, Homo sapiens, UniProt Q99640)	immunoblotting	HCC1569	50 µg/mL, 2 h	–	remaining protein level	80%
CCTAACTACTATAATCATATGACATAGCTTCGTACAGTCTTGATTCGCTTGACGCTGCTG	CBF1 full length, N-terminal tag	protein-binding microarray	double-stranded DNA, one strand shown, in vitro	0.8 µM, whole 60-bp probe, no competitor	higher = stronger binding	fluorescence intensity	965 a.u.
CNC(=O)c1cc(C(=O)NC2CC2)cn(Cc2ccccc2)c1=O	Muscarinic acetylcholine receptor M4 (CHRM4, Homo sapiens, UniProt P08173)	binding, radioligand binding	–	10 µM	–	inhibition	0.52%
COc1ccc(-c2c(Nc3ccccn3)[nH]c3c(C4=CCCCC4)c(-c4ccccc4)nn3c2=O)cc1	–	–	patients with advanced malignancies	oral, dose not given, treatment-emergent adverse events	–	abdominal pain incidence	12.5%

Repeated from above (other studies, line by line):
Substance	tested on	assay	system	conditions	how to read	quantity	value
KQLGQVMLL	HLA class I histocompatibility antigen, B alpha chain, allele B*48:01 (Homo sapiens, UniProt P01889)	peptide-MHC binding	peptide	concentration not given	–	binding	active
